Experimental data collected from several papers.
A part holds a random share of what one study measured. Changes are numbered by the printed parent chain.
Chain of UniProt P20309 (whole entry, looked up): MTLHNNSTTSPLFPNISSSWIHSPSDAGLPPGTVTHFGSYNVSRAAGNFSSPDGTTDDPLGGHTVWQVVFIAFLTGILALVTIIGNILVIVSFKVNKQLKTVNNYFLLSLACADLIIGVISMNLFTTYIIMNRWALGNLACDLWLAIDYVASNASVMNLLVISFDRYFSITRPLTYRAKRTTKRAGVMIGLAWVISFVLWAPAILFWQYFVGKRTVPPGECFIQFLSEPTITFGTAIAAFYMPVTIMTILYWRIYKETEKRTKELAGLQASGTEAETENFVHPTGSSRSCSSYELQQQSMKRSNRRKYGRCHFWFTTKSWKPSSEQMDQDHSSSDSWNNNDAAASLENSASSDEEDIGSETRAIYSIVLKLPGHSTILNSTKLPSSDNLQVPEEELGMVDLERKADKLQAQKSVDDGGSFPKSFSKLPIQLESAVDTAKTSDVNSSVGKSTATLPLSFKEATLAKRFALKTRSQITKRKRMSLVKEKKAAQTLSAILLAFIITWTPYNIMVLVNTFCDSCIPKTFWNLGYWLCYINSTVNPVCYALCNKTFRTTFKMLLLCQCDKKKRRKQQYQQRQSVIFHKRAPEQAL

Set 1
Target: CCNA2, cyclin fold, Cln2 fusion (human)
Method: yeast growth competition, sequencing
Sample: yeast
Setting: strong parent motif
Reference: not given
Reading: higher = stronger binding
Starting sequence: viral docking peptide; KGVKRKLFAEDSS; partner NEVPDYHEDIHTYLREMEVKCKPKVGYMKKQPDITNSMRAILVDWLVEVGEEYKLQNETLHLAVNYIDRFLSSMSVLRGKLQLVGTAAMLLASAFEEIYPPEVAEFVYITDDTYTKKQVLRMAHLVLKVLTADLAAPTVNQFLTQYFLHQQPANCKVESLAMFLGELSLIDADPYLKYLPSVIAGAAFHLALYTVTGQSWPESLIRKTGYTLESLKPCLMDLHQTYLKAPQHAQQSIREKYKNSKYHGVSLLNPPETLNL
Change	normalised enrichment score
KGVKRKLFAEDVS [S12V]	6.52
KAVKRKLFAEDSS [G2A]	5.96
KGVKRKLFAEDDS [S12D]	6.1
KGVKRKSFAEDSS [L7S]	0.364
KGVKAKLFAEDSS [R5A]	1.23
KGVKRKLFAYDSS [E10Y]	5.08
KGVKRKLFAEYSS [D11Y]	6.28
KGVKKKLFAEDSS [R5K]	5.54

Set 2
Target: tungstate, free oxyanion
Method: microfluidic competitive inhibition
Sample: in vitro, cell-free expressed
Tested at: not given
Setting: derived from inhibition constants, unchanged parent 2230 nM
Reading: lower = stronger binding
Starting sequence: PafA, mature enzyme, eGFP fusion (Elizabethkingia meningoseptica, UniProt Q9KJX5); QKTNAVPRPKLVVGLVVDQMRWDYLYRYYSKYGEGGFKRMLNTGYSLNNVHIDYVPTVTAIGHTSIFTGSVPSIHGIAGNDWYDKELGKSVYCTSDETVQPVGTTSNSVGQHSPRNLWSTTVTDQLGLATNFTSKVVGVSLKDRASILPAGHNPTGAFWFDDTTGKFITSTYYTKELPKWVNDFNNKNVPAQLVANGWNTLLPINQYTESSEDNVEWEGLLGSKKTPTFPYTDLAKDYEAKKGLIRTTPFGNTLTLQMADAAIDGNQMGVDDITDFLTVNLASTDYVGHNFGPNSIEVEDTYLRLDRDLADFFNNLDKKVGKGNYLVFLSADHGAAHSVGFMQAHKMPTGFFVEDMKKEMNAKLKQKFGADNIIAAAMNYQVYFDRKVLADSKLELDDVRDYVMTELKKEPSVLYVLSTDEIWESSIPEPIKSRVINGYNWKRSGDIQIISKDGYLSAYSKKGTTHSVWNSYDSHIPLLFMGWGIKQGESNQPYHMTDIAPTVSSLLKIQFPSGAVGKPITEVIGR
Change	oxyanion analog dissociation constant
T130G	2.08 µM
D143V	10.9 µM
Y54G	1.66 µM
T98G	1.95 µM
M356V	2.08 µM
A310V	2.09 µM
S471V	2.31 µM
L329G	2.06 µM

Further values, each from its own experiment
Structure (SMILES)	target or system	assay	system	conditions	how to read	measurement	result
N#Cc1cccc(N2C[C@@H](c3cccc(F)c3F)[C@@H]3[C@H]2C2CCN3CC2)n1	–	–	human, microsomes or S9	2 µM, 0.5 h	–	remaining compound	36.5%
CC(=O)C1=C(C)N(c2cccc(C(F)(F)F)c2)C(=O)N[C@H]1c1ccc(C#N)nc1	Muscarinic acetylcholine receptor M3 (CHRM3, Homo sapiens, UniProt P20309)	ligand displacement	–	10 µM	–	inhibition	27.3%
O=c1c2c(Cl)cccc2nc([C@@H]2CCCN2)n1-c1ccccc1	–	–	human, microsomes or S9	2 µM, 0.5 h	–	remaining compound	> 100%
CCC(=O)O[C@H]1CC[C@H]2[C@@H]3CCC4=CC(=O)CC[C@]4(C)[C@H]3CC[C@]12C	Plasmodium berghei	inhibitor	Huh-7, GFP-expressing, liver stage	10 µM, 24 h	reference: untreated control	infection rate	87.7%

Excerpt of the above (further values, each from its own experiment):
Structure (SMILES)	target or system	assay	system	conditions	how to read	measurement	result
N#Cc1cccc(N2C[C@@H](c3cccc(F)c3F)[C@@H]3[C@H]2C2CCN3CC2)n1	–	–	human, microsomes or S9	2 µM, 0.5 h	–	remaining compound	36.5%
CC(=O)C1=C(C)N(c2cccc(C(F)(F)F)c2)C(=O)N[C@H]1c1ccc(C#N)nc1	Muscarinic acetylcholine receptor M3 (CHRM3, Homo sapiens, UniProt P20309)	ligand displacement	–	10 µM	–	inhibition	27.3%
